Measurements gathered from unrelated publications.
Lines come from different studies, so protocols differ. “And” joins repeats or separate records; there may be more than shown. ± marks the error that the study gave. In brackets after ≈: the same amount, converted by molar mass.
Sequence of UniProt P41595 (whole entry, looked up): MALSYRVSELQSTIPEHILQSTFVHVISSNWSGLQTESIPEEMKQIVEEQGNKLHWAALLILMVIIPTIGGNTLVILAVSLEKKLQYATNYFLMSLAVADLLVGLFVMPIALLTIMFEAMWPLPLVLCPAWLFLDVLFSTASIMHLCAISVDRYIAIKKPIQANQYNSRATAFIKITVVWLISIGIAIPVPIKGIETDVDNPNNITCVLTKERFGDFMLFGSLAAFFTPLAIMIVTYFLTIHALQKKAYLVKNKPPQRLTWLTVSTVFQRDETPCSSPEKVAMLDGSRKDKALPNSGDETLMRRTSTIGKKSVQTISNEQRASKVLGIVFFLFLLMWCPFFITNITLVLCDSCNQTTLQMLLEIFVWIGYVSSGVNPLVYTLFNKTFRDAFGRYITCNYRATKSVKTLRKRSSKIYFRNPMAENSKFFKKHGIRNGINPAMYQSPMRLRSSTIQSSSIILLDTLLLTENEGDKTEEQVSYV
Sequence of UniProt Q9ULK4 (whole entry, looked up): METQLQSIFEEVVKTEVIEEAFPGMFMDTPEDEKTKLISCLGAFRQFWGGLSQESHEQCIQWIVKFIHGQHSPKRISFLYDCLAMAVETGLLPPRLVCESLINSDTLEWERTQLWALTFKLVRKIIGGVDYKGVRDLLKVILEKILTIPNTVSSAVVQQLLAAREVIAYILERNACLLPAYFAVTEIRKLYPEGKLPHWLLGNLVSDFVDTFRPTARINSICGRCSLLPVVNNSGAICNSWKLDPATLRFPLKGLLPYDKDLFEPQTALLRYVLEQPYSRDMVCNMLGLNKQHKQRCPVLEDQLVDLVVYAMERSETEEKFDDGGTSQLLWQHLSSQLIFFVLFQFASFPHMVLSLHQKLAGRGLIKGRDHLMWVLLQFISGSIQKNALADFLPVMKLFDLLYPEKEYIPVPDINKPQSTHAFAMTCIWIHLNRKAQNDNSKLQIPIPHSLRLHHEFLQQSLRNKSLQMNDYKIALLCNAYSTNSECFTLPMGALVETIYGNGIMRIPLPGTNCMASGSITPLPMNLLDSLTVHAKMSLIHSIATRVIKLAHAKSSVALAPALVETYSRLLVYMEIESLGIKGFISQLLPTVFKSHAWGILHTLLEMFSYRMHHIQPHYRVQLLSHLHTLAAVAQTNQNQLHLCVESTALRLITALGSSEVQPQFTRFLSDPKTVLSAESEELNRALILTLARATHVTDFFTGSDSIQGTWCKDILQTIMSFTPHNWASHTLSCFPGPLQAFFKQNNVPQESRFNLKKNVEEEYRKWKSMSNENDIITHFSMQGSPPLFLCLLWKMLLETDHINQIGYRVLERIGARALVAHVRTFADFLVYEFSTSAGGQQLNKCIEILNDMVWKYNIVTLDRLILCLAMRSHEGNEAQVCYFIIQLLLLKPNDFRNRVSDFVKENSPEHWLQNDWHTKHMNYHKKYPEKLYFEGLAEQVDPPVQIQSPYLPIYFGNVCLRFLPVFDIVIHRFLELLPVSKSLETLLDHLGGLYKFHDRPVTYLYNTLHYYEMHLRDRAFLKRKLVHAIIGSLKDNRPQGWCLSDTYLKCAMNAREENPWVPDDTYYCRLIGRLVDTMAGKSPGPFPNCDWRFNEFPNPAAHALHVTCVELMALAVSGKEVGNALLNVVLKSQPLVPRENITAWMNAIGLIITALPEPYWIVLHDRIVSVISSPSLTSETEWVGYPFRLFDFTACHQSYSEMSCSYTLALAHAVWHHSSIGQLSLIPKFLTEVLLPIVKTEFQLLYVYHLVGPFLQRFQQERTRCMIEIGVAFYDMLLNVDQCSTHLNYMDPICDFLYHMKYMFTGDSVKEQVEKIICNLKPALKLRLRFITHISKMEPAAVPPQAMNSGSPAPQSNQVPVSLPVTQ
Sequence of UniProt P53779 (whole entry, looked up): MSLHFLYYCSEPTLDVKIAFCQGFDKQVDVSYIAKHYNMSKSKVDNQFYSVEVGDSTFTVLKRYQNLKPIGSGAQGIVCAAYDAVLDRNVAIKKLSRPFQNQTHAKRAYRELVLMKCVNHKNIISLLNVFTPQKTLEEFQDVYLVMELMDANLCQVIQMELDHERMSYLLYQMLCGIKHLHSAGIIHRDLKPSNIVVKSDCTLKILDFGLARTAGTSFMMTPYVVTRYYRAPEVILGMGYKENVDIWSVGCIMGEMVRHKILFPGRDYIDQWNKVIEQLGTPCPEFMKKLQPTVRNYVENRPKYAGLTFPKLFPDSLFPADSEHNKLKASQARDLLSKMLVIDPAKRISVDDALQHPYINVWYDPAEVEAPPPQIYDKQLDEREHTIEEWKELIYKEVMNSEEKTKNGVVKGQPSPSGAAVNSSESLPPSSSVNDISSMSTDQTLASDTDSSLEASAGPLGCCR

SMILES | tested on | test | system | setting | how to read | endpoint | value
CO/C=C(/C(=O)OC)c1ccccc1Oc1cc(Oc2ccccc2C#N)ncn1 | Fusarium graminearum | fungal growth, inhibitor | – | – | – | EC50 | 20.2 ± 1.39 µg/mL (≈ 50.1 µM)
CN1CCN(S(=O)(=O)c2cc([N+](=O)[O-])ccc2N(CCOS(C)(=O)=O)CCOS(C)(=O)=O)CC1 | – | – | NSG mice, sample DB PDX | intraperitoneal, 25 mg/kg weekly x3 | baseline: vehicle | EFS delay (T-C) | 49 days
CC(C)C[C@@H]1NC(=O)[C@H](CC(C)C)NC(=O)[C@H](Cc2c[nH]c3ccccc23)NC(=O)[C@H](CO)NC(=O)[C@H](Cc2c[nH]c3ccccc23)NC(=O)[C@@H]2CCCN2C(=O)[C@H](CC(C)C)NC(=O)[C@H](Cc2c[nH]cn2)NC(=O)[C@@H]2CCCN2C(=O)[C@H](CC(N)=O)NC(=O)[C@H](C)NC(=O)[C@H](Cc2ccc(O)cc2)NC(=O)[C@H](CS)NC(=O)[C@H](CCCCNC(=O)CN2CCN(CC(=O)O)CCN(CC(=O)O)CCN(CC(=O)O)CC2)NC1=O [lutetium-177 labelled] | – | OLINDA dosimetry | BALB/c mice, spleen | 37 MBq, 7 days | – | total nuclear transformations | 49.1 MBq-s
COc1cc(Nc2ncc(F)c(Nc3ccc4c(n3)NC(=O)C(C)(C)O4)n2)cc(OC)c1OC | 5-hydroxytryptamine receptor 2B (HTR2B, Homo sapiens, UniProt P41595) | – | – | – | – | IC50 | > 10000 nM
CC[C@H](C)[C@H](NC(=O)[C@H](Cc1ccccc1)NC(=O)[C@H](CCC(=O)O)NC(=O)[C@H](CCCNC(=N)N)NC(=O)[C@H](C)NC(=O)[C@H](C)NC(=O)[C@H](CCC(N)=O)NC(=O)[C@H](CCC(=O)O)NC(=O)[C@H](CCC(=O)O)NC(=O)[C@H](CC(C)C)NC(=O)[C@H](Cc1ccc(O)cc1)NC(=O)[C@H](CO)NC(=O)[C@H](CO)NC(=O)[C@@H](NC(=O)[C@H](CC(=O)O)NC(=O)[C@H](CO)NC(=O)[C@@H](NC(=O)[C@H](Cc1ccccc1)NC(=O)[C@@H](NC(=O)CNC(=O)[C@H](CCC(=O)O)NC(=O)[C@H](C)NC(=O)CCc1c[nH]cn1)[C@@H](C)O)[C@@H](C)O)C(C)C)C(=O)N[C@@H](C)C(=O)N[C@@H](Cc1c[nH]c2ccccc12)C(=O)N[C@@H](CC(C)C)C(=O)N[C@H](C(=O)N[C@@H](CCCNC(=N)N)C(=O)NCC(=O)N[C@@H](CCCNC(=N)N)C(=O)N[C@@H](CCCCNC(=O)COCCOCCNC(=O)COCCOCCNC(=O)CC[C@H](NC(=O)CCCCCCCCCCCCCCCCC(=O)O)C(=O)O)C(=O)NCC(=O)NCC(=O)N[C@@H](CO)C(=O)N[C@@H](CCCCNc1c(NCCCCCN(O)C(=O)CCC(=O)NCCCCCN(O)C(=O)CCC(=O)NCCCCCN(O)C(C)=O)c(=O)c1=O)C(=O)O)C(C)C [zirconium-89 labelled] | – | – | rat, blood | sc, 3 nmol/kg, 24 h, ex vivo | – | tissue uptake | 0.3 %ID/g
O=C(NNc1cc(F)ccc1F)c1nnc(CC23CC4CC(CC(C4)C2)C3)o1 | Fusarium graminearum | fungal growth, inhibitor | – | 50 µg/mL | – | inhibition | 100%
CN1CC[C@]23c4c5ccc(O)c4O[C@H]2[C@@H](OS(=O)(=O)O)C=C[C@H]3[C@H]1C5 | – | hot water tail withdrawal test | normal Sprague-Dawley rats | ip, 1 mg/kg | – | peak increase in tail withdrawal latency | 4.3 ± 0.3 s
COc1ccc(N2C(=O)N(c3c(C)cccc3Cl)Cc3cnc(Nc4ccc(C5CCN(C)CC5)cc4OC)nc32)nc1 | Mitogen-activated protein kinase 10 (MAPK10, Homo sapiens, UniProt P53779) | kinase activity, inhibitor | – | 0.5 µM, kinase JNK3 | – | inhibition | 3%
C[C@H](C(=O)N[C@H]1COc2ccccc2[C@@H]1S(C)(=O)=O)c1ccc(F)cc1 | 5-HT2 receptor, rat | binding | – | 10 µM, Eurofins selectivity panel | – | inhibition | 8%
C[C@H]1CN(c2n[nH]c3nc(N[C@H]4CC[C@H](NS(=O)(=O)CCC(F)(F)F)CC4)ncc23)CCO1 | Mediator of RNA polymerase II transcription subunit 23 (MED23, Homo sapiens, UniProt Q9ULK4) | inhibitor, Kinobeads competition profiling | – | 20 µM | baseline: vehicle | relative abundance | 1.1
COc1cc2c(Oc3ccc4[nH]c(C)cc4c3F)ccnc2cc1OCC1(N)CC1 | – | – | paediatric recurrent refractory sarcoma | 10 mg | – | grade 3 Cholesterol elevation | 0%
CC[C@H](C)[C@@H]1NC(=O)[C@@H]2CCCN2C(=O)[C@H](CC(C)C)NC(=O)[C@H](CC(C)C)NC(=O)CNC(=O)[C@@H](NC(=O)[C@@H](NC(=O)[C@H](CC(=O)O)NC(=O)CNC(=O)[C@@H](NC(=O)[C@H](C)NC(=O)CNC(=O)[C@H](CCCCN)NC(=O)[C@H](CC(C)C)NC(=O)[C@H](CC(C)C)NC(=O)[C@H](CCCCN)NC(=O)CNC(=O)[C@@H](NC(=O)[C@@H](N)CC(C)C)C(C)C)C(C)C)C(C)C)CSSC[C@@H](C(=O)O)NC1=O | – | RNA-seq, refers to: Olfr56 mRNA | mouse traumatic brain injury, frontal cortex and hippocampus | dose not given | baseline: TBI plus compound vs TBI | log2 fold change | -4.9
COc1c(CCC[P+](c2ccccc2)(c2ccccc2)c2ccccc2)cc2c(c1OC)OCO2.[I-] | HOP-62 | SRB | – | – | – | TGI | -4.84 log M
C[C@]12CC[C@H]3[C@@H](CC=C4CC(O)CC[C@@]43CO)[C@@H]1CCC2O (stereo partly shown) | – | refers to: TSPO, CYP27A1 | rat, GAN diet-induced MASH, liver | dose not given | baseline: GAN diet plus vehicle | protein level | decreased
CC(=O)c1c(C)c2cnc(Nc3ccc(C4CCN(CCS(C)(=O)=O)CC4)cn3)nc2n(C2CCCC2)c1=O | – | tumour growth | mouse, MDA-MB-435S xenograft | oral, 20 mg/kg twice daily, 25 days | – | T/C | 89%
C[C@H]1O[C@@H](O[C@H]2CC[C@@]3(C)[C@@H](CC[C@]4(C)[C@@H]3C=C[C@]35OC[C@@]6(CCC(C)(C)C[C@H]63)[C@@H](O)C[C@]54C)[C@]2(C)CO)[C@H](O)[C@@H](O[C@@H]2O[C@H](CO)[C@@H](O)[C@H](O)[C@H]2O)[C@H]1O | – | Western blot, refers to: Deptor | mouse, AAV8-TBG-Null control vector, liver | dose not given, high dose, unit not given, with: ethanol | baseline: β-actin | protein level | 0.716 and 0.887 and 0.975
COc1ccc(-n2nc(C(C)=O)s/c2=N\N=C(/C)c2ccc(NC(C)=O)cc2)cc1 | HepG2 | – | – | 2.5 µM | – | viability | 5.68%
O=C1NC(=O)C(=O)C(=O)N1 | SAR11_1346 | differential scanning fluorimetry | Candidatus Pelagibacter sp. | in-house screen | – | thermal shift | 9.78 °C
C[C@@H](O)[C@H](NC(=O)[C@@H]1CSSC[C@H](NC(=O)[C@@H](Cc2ccccc2)NC(=O)CN2CCN(CC(=O)[O-])CCN(CC(=O)[O-])CCN(CC(=O)[O-])CC2)C(=O)N[C@@H](Cc2ccc(O)cc2)C(=O)N[C@H](Cc2c[nH]c3ccccc23)C(=O)N[C@@H](CCCCN)C(=O)N[C@@H]([C@@H](C)O)C(=O)N1)C(=O)O.[177Lu+3] | MEC1 treated with 200 µM zebularine | gamma counter | – | 120 min efflux after 2 h loading | – | retention | 33.1%
CO[C@H]1C[C@@H]2CC[C@@H](C)[C@@](O)(O2)C(=O)C(=O)N2CCCC[C@H]2C(=O)O[C@H]([C@H](C)C[C@@H]2CC[C@@H](OC(=O)NCCOCCOCCOCCOCCOCCOCCOCCOCCC(=O)N3CCc4cc(Cn5nc(-c6ccc7oc(N)nc7c6)c6c(N)ncnc65)ccc4C3)[C@H](OC)C2)C[C@@H](O)[C@H](C)/C=C(\C)[C@@H](O)[C@@H](OC)C(=O)[C@H](C)C[C@H](C)/C=C/C=C/C=C/1C | – | phase 1 dose escalation, refers to: mucositis | advanced solid tumour patients | intravenous, 12 mg weekly, any grade | – | dose-reducing adverse events | 0%
CN1CCN(C2(CNC3CCN(c4cccc(-c5cc6cc(F)ccc6[nH]5)c4)CC3)CCC2)CC1 | OVCAR-3 | – | – | – | – | GI50 | 1640 nM
OC(c1ccccc1)(c1ccccc1)C1CCNCC1 | AC16 cardiomyocytes | mitochondrial membrane potential decrease | – | 1 h | – | IC50 | 690 ± 450 nM
c1ccc(C(NCCNC(c2ccccc2)c2ccccc2)c2ccccc2)cc1 | kainate receptor, rat | binding | – | 10 µM, Eurofins selectivity panel | – | inhibition | 1%
CC[C@H](C)[C@H](NC(=O)[C@H](C)NC(=O)[C@H](CCCCN)NC(=O)[C@H](CC(C)C)NC(=O)[C@H](C)NC(=O)[C@@H](NC(=O)[C@H](Cc1c[nH]cn1)NC(=O)[C@H](CC(C)C)NC(=O)[C@@H](NC(=O)[C@@H](NC(=O)[C@H](CCCCN)NC(=O)[C@H](C)NC(=O)[C@H](C)NC(=O)[C@H](CO)NC(=O)[C@H](CCCCN)NC(=O)[C@H](Cc1ccccc1)NC(=O)[C@@H](NC(=O)[C@H](CCCCN)NC(=O)[C@H](CC(C)C)NC(=O)[C@H](Cc1ccccc1)NC(=O)[C@H](CO)NC(=O)[C@H](CCCCN)NC(=O)[C@H](Cc1c[nH]c2ccccc12)NC(=O)[C@H](CCCCN)NC(C)=O)[C@@H](C)O)[C@@H](C)O)C(C)C)[C@@H](C)O)C(=O)N[C@@H](CO)C(=O)N[C@@H](CO)C(N)=O | Klebsiella pneumoniae | – | ATCC 1706 | – | – | MIC90 | 2 µg/mL (≈ 0.682 µM)
COc1cc(CCC[P+](c2ccccc2)(c2ccccc2)c2ccccc2)c(OC)c2c1OCO2.[I-] | HOP-92 | SRB | – | – | – | TGI | -5.16 log M
O=C1NC(=O)C(C2C3=C(CCCC3=O)Oc3ccc([N+](=O)[O-])cc32)C(=O)N1 (stereo not shown) | 3T3-L1 preadipocytes | adipogenesis, Oil Red O staining | – | IC20, 14 days, single replicate | – | lipid content | 0.501 OD492
C[C@@H](O)[C@@H](CO)NC(=O)[C@@H](CCCNC(=N)N)NC(=O)[C@@H]1CCCN1C(=O)[C@@H]1CSSC[C@H](NC(=O)[C@H](Cc2ccccc2)NC(=O)CN2CCN(CC(=O)O)CCN(CC(=O)O)CCN(CC(=O)O)CC2)C(=O)N[C@@H](Cc2ccc(O)cc2)C(=O)N[C@@H](Cc2ccccc2)C(=O)N[C@@H](CCC(N)=O)C(=O)N[C@@H](CC(N)=O)C(=O)N1 [gallium-68 labelled] | – | – | Wistar rat, stomach | intravenous, 8 MBq, 60 min, group mean | – | tissue uptake | 0.27 %ID/g
CCCCC1(CCCC)CN(c2ccccc2)c2cc(SC)c(OCC(=O)N[C@@H](C(=O)NCC(=O)O)c3ccccc3)cc2S(=O)(=O)C1 | – | refers to: HDL cholesterol | human, serum | 10 mg once daily, day 1 | – | serum HDL-C | 51.1 mg/dL
